Measured values pooled from the literature.
Each numbered part is a random draw from the data of one study; scales do not carry over between parts.

Study 1 — technique: protein binding microarray; molecule type: double-stranded DNA, one strand shown; medium: in vitro; concentration: not given; reference: not given; reading: higher = stronger binding
Target: Histone acetyltransferase KAT6A, both winged helices, GST fusion (KAT6A, Homo sapiens, UniProt Q92794, residues 1-181)
Setting: 8-mer, flanks averaged, mean of 2 arrays, mostly near background
Construct (chain): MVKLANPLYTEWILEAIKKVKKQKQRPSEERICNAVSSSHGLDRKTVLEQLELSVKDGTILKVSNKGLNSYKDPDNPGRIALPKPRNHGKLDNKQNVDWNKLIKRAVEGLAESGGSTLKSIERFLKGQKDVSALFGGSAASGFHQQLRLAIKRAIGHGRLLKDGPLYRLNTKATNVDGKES
Strand | E-score
ACCGACGG | 0.361
CACTAGCC | 0.194
ACCTATGC | 0.0535
GGCTGATA | 0.0378
GAGGCCTC | -0.0633
TCCCATCA | -0.144
CGTCAGTC | 0.0624
AGCACATA | -0.132
ACCCAGCC | -0.126
ACAGTGCC | -0.0684
GACAGGAA | -0.039
ATGAATAG | -0.0724
AAACGGCT | 0.179
AGCATGCT | -0.158
AGCCTGTA | -0.134
GTTGACCA | -0.151
GACGCTAC | 0.145

Study 2 — technique: universal PBM; molecule type: double-stranded DNA, one strand shown; medium: in vitro; concentration: not given; reading: higher = stronger binding
Target: Sal-like protein 4, full length isoform B (SALL4, Homo sapiens, UniProt Q9UJQ4-2, residues 1-616)
Setting: 8-mer, flanks averaged, mean of replicates
Residues (chain): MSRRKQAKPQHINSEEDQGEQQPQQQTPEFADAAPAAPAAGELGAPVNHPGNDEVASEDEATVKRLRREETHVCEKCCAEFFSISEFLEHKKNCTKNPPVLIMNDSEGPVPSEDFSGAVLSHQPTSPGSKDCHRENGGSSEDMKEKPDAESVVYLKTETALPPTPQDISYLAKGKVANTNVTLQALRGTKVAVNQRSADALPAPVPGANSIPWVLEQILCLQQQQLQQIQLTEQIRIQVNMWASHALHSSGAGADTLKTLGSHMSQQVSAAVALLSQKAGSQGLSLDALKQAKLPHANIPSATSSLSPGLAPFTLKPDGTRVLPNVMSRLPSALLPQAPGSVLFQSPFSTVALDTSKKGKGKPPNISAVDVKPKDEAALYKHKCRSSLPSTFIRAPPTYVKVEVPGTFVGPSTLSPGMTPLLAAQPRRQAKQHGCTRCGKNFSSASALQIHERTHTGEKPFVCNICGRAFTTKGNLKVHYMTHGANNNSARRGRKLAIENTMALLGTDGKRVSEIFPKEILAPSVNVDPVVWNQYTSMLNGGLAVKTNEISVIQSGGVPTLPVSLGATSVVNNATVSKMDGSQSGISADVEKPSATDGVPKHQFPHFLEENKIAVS
Strand | E-score
CACGCCAG | -0.316
AGCAGTTC | -0.0517
GCCCCCCA | -0.429
CTCTATGC | -0.129
GCCCTTCC | -0.252
CGAGGAGC | -0.316
ACTTCTTG | -0.00379
AATAAGAT | 0.255
CAAGATCC | -0.00313
ACCTCTTC | 0.0874
ACTCCACG | -0.231
AGATCTTG | 0.023

Study 3 — technique: protein-binding microarray; molecule type: double-stranded DNA, one strand shown; medium: in vitro; concentration: not given; reading: higher = stronger binding
Target: Hepatocyte nuclear factor 3-beta, forkhead domain (FOXA2, Homo sapiens, UniProt Q9Y261, residues 142-269)
Setting: k-mer, scored over probes, only values ≥0.25
Residues (chain): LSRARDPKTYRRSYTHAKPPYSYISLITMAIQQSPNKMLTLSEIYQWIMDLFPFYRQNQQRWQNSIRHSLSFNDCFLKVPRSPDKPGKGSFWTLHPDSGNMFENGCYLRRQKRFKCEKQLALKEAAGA
Strand | E-score
AAATACAA | 0.348
CACAACAA | 0.283
ATTAATAA | 0.275
TCAAGTAA | 0.269
GTATTATA | 0.329
GATATATA | 0.375
AAATCAAT | 0.27
TATTTTAA | 0.263
ATAACCAA | 0.328
CAACTACA | 0.254
ATAACAAC | 0.373
ATGAATAA | 0.252
AAATACAC | 0.325

Study 4 — technique: RNA Bind-n-Seq; molecule type: RNA; medium: in vitro; concentration: 365 nM; reference: no-protein control; reading: higher = stronger binding
Target: RNA binding protein fox-1 homolog 2, RRM domain, GST-SBP tag (RBFOX2, Homo sapiens, UniProt O43251-10, residues 100-194)
Setting: natural RNA segment, single round, ends assumed
All sequences stand within: GGGAGUUCUACAGUCCGACGAUC … UGGAAUUCUCGGGUGCCAA
Residues (chain): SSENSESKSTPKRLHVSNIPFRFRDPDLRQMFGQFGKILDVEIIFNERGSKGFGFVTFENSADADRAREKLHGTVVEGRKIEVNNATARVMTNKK
Strand | RBNS enrichment (R)
UAUUGUAUAUUUUUUUCUUAAUGUUUAAGGAAAUGUGCAGGAUACUACAUGCUUUUUGUAUCACACAGUAUAUGAUGGGGCAUGUGCCAUAGUGCAGGCUUGGGGAGCUU | 1.17
CACUAAUCAUGAACACGUUUUUGCCAGUUUCAAUCAAGUCAGAGGCAUUUAAUAAAAUUAUCUACACCUUCGGAGUCUUGAGUUUUUGUUCGGGUUUGCCCUCACAGAGC | 0.648
UCCUCGGGGAGGCCCCUGCCCCCACCCUGCCAGCCCUUCCCAGUCUCAUUAGAGGAAGCUUUCCAAAGUUCUCAGUUAUCAAGACCUCAUCCAGCUCGUCCAAAGGCUUC | 0.523
GUUGCCACUUGGGGUGCACAGAUAAGGGUAGGUCACCAACUGAUUAUGCCUGUCUCUGAGCCAUGCAAGAGGCUCCUAAUGUGCUGGGGGGGGGAGCACAUAUGCAUAUA | 0.89
CUGGCCUCUGCCUUUCUCCCUCCUGCCUUCUGCUUGGGGAACUCAGGGCUUCACUCCCAGAGCACCCCCUUAAUCCCCACUUUUCAGGCCGUCUCAGUAUUGCCUAUGGG | 0.35
AGAUUGUCCGUGGGAGGGCUCCAGUGUCUGGGAAGAGGGCAGGCGGCCCCCAUGAAUGUCCUCGGAAGGGGGUGGCUCCUGGUAGCAUCCUUUUCCUUCACCAUCUAUGG | 1.21
AAAUGUAUUUUAAAAUUUCACUCUGGCAUAUGAUUUAUCUAUCACCAUUACUUUUUUUUAAGUCACAAUUUCAGAAUUUUGGGACAUUUGCAUUCAAUUUACAGGUACCA | 0.531
CAAAAAAAAAAACAAAAAACAAAAAACAAAAAACAAAAAUGUUGUCACACUGGAAAUUGUACAUUUUUUUAAAGAAAAGGUAUAGUUUUAUAACUGAGAUGUACCUAAAU | 0.94
GUGUGUGUGGAAAGGGUAGGGCUGCACCCUGUGGAAGAGGGUUCAGGGAGCUCUGAGGACCUGGCUCGUGCUAGAUGCUCAGUCAGUAGUGUGUUUUAGCAGCAGCCGGA | 1.12
GCAUAUAAAAUUAAAAUAAAGAUUUUGGAAACAACAUAUUGCCAAAAUGAGAAUUACUUGGUAUUAUUUUGGUCUGUGGCUUCUAAGAUUUUUUAAAAUACAUGAAAAAU | 1.13
ACUGCCUUGCUUUCCCCGGUUCUUUCCCCUGCUAGCACCUGCUUUCUCAUCCCUAUCUCCAGUCAAAGAUGGGAUUGCUUAAUCCAACUCUGGAGAGGGACCAAGUCUUU | 0.815
AACAAUUCUGCCGGUGCUGAAGUACCAAGAAUGUUUUCAUUUGCAUUUUCCUGGUUAAGAAAUCUGUAUAAAGUUAGUGAGAUGCAUAUUCUUUAUAUAAGGUGGGCAUC | 0.948

Study 5 — technique: protein-binding microarray; molecule type: double-stranded DNA, one strand shown; medium: in vitro; concentration: 2200 nM top; setting: 60-bp whole probe; together with: salmon DNA 0.4 mg/ml; reference: random background probes; reading: higher = stronger binding; all sequences stand within: GCCTAGCAC … GTCTTGATTCGCTTGACGCTGCTG
Target: Interferon regulatory factor 7, full length, phosphomimetic (IRF7, Homo sapiens, UniProt Q92985, residues 1-503, S471D/S472D/S475D/S476D/S477D/S483D/S484D/S487D)
Sequence of UniProt Q92985 (whole entry, unmodified, looked up): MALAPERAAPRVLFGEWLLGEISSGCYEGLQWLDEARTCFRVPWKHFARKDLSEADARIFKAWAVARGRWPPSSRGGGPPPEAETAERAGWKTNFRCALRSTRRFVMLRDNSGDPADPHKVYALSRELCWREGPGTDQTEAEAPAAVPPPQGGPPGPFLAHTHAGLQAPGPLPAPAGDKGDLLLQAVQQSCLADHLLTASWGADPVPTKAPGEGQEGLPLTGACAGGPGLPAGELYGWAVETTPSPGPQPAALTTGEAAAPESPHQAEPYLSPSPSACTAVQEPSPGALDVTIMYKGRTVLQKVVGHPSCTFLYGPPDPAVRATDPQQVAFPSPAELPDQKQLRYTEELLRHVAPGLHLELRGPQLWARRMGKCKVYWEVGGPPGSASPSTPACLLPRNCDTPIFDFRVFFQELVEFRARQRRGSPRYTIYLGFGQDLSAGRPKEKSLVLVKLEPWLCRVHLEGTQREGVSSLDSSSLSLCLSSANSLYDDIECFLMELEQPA
Strand | fitted relative affinity
TTAGATTCCAGTCTCGATTAGTGCTAG | 1.13 z-score
GACGGACTCGGGTTTCGGGACGTGCTA | 1.49 z-score
CTCCTAATAAATATGAGACTGTGCTAG | 0.227 z-score
GACGAACTGGACTATCGGGACGTGCTA | -0.489 z-score
GGCGATTTCAGTTTCGAGACGTGCTAG | 5.26 z-score
TTAGATTGCAGTATCGATTAGTGCTAG | 0.276 z-score
TCAATTTCCACTTTCTTACTGTGCTAG | 4.01 z-score
TTTTTTTTGGAATGTCTTCCCGTGCTA | 1.34 z-score
TTAGAGTTCAGACTGGATTAGTGCTAG | -0.696 z-score
GACGGCATCGGTCTCGGGACGTGCTAG | -0.558 z-score
GACGGTTTCCTACAGCTGACGTGCTAG | 1.54 z-score
TTTTCCAGAGGCCCAGCCAGGTGCTAG | -0.0151 z-score

Study 6 — technique: competition protein-binding microarray; molecule type: double-stranded DNA, one strand shown; medium: in vitro; concentration: 2 µM; together with: Pho4 competitor, 0.05 µM; reading: higher = stronger binding; all sequences stand within: … GTCTTGATTCGCTTGACGCTGCTG
Target: Centromere-binding protein 1, full length, His-tagged (CBF1, Saccharomyces cerevisiae, UniProt P17106, residues 1-351)
Sequence of UniProt P17106 (whole entry, looked up): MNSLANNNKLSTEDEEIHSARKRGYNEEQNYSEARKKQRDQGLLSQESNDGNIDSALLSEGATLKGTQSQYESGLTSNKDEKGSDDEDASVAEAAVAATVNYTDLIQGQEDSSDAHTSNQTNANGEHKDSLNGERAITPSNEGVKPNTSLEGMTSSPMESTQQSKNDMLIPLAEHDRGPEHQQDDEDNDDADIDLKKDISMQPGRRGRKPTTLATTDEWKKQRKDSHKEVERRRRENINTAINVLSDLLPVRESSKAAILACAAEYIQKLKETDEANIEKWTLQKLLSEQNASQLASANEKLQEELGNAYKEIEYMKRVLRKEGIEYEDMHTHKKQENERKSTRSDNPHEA
Setting: whole 60-bp probe, lowest competitor level
Strand | fluorescence intensity [a.u.]
TGGCCTAAGGTGAAGGTCGTGCTTTTTGTTCAATTG | 67.8
TTCATTTTTGGTTAACTCGTGTAACTCTTCTTCCAA | 93.7
AGGCAAGGCGTACATGGCGTGACGGAGGGTTCAATG | 97.9
AAAGCGGTAATTTGGCTTGTGGGTGCAGATATCTAT | 67.7
ACTCTGTTTGCGAGTCACGTGAAATATTTCCTGTGG | 7760
TCGGGCGCTCTAGGACGCGTGTCGGTCGGGTAACCA | 61.1
TGGTATCGCGAAAGAAACGTGTAGGCAATTAGGACT | 118
TGCGCAACAACTTGGGAAGTGGGTGTATGTCTAGAA | 57
ATTCCTCGGAGGTAACATGTGCTGCAAAGGCCATGA | 133
CGTCCTAGTGATTGCGTGGTGGGTGCCATGAGGAAG | 88.3
GAAATAAAAGTACCTTCCGTGATGGTCTTGGTACCA | 55.7
CTGTAAGATAAGGGACATGTGGCCTGGGAACTCCTG | 105
GAAGAGGAGTCTTTGCACGTGTTTCAGTATGCTAAT | 1610

Study 7 — target: UBE2L3 UBC core domain (UniProt P68036); technique: yeast two-hybrid; medium: yeast; setting: mostly zero background; reference: not given; reading: higher = stronger interaction
Sequence of UniProt P68036 (whole entry, looked up): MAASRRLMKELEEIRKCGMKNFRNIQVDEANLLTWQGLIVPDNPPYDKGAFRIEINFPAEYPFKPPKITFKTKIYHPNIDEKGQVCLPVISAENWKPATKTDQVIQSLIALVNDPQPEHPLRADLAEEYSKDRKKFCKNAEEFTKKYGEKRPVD
B1: NEURL1 RING domain (UniProt O76050); chain VTPGLGQWSDECTICYEHAVDTVIYTCGHMCLCYACGLRLKKALHACCPICRRPIKDIIKT
B2: TRIM4 RING domain (UniProt Q9C037); chain EAEDIQEELTCPICLDYFQDPVSIECGHNFCRGCLHRNWAPGGGPFPCPECRHPSAPAALRP
B3: TRIM13 RING domain (UniProt O60858); chain MELLEEDLTCPICCSLFDDPRVLPCSHNFCKKCLEGILEGSVRNSLWRPAPFKCPTCRKETSATGINS
B4: TRIM40 RING domain (UniProt Q6P9F5); chain LQKDNQEEGVCPICQESLKEAVSTNCGHLFCRVCLTQHVEKASASGVFCCPLCRKPCSEEVLG
Sequence | lacZ reporter activity
B1 (NEURL1 RING domain) | 0
B2 (TRIM4 RING domain) | 0
PAELEVQASECVVCLEREAQMIFLNCGHVCCCQQCCQPLRTCPLCRQDIAQRLRIY (LRSAM1 RING domain (UniProt Q6UWE0)) | 0
B3 (TRIM13 RING domain) | 0
B4 (TRIM40 RING domain) | 0
QVDKAVFHMQSVKCLKCQEQKRAVLPCQHAALCELCAEGSECPICQPGRAHTLQS (UNK RING domain (UniProt Q9C0B0)) | 0
MPIRALCTICSDFFDHSRDVAAIHCGHTFHLQCLIQWFETAPSRTCPQCRIQVGKRTIIN (TRAIP RING domain (UniProt Q9BWF2)) | 0

Study 8 — technique: RNA Bind-n-Seq; molecule type: RNA; medium: in vitro; concentration: 90 pmol; setting: 4-mer, random 30-nt RNA, single round; reference: input library; reading: higher = stronger binding
Target: Eukaryotic initiation factor 4A-I (EIF4A1, Homo sapiens, UniProt P60842, residues 1-406, full length assumed)
Sequence of UniProt P60842 (whole entry, looked up): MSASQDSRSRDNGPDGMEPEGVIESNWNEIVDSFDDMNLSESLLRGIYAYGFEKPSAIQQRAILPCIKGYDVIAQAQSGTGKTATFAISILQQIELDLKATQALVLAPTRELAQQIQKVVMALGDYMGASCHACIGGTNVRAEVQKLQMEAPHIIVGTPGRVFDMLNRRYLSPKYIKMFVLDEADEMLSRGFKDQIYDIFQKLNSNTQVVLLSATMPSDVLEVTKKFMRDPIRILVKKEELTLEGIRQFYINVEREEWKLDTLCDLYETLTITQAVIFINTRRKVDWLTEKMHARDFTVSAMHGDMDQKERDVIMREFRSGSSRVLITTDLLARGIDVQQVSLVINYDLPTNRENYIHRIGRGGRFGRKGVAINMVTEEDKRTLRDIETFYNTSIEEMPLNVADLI
Together with: 3 µM iPr-DMDA-PatA, 2 mM ADP, 2 mM phosphate
Strand | 4-mer enrichment
GAUA | 1.3 fold
AGUC | 1.08 fold
UGGG | 0.635 fold
UCGU | 0.929 fold
CAUA | 1.15 fold
UGCU | 0.825 fold
GUUG | 0.844 fold
CAGU | 0.943 fold
AAGC | 1.08 fold
GCAU | 0.871 fold
CGGU | 0.782 fold
GGCU | 0.713 fold
UCCG | 0.918 fold
AUUA | 1.37 fold
UGAC | 1.09 fold
CGUA | 0.989 fold
